# Published values gathered from unrelated publications.
# Each line is one published result; not all experiments were run side by side. Numbers after ± are the reported error. No end group written: not given here.
# CHRM1: Muscarinic acetylcholine receptor M1 (CHRM1, Homo sapiens, UniProt P11229)
# UniProt P11229, sequence (whole entry, looked up): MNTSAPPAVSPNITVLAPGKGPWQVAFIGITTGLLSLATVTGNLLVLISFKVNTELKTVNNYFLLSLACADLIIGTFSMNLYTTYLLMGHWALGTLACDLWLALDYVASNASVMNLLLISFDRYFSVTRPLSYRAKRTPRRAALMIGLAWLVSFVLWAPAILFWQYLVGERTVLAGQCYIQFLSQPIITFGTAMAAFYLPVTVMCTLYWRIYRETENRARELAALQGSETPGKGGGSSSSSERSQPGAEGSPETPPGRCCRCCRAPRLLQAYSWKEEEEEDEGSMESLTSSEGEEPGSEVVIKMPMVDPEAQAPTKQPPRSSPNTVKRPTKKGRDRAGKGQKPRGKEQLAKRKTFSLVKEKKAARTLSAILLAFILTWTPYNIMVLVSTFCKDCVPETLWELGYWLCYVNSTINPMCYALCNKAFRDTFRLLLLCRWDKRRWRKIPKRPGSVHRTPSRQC
# ABCG2: Broad substrate specificity ATP-binding cassette transporter ABCG2 (ABCG2, Homo sapiens, UniProt Q9UNQ0)
# UniProt Q9UNQ0, sequence (whole entry, looked up): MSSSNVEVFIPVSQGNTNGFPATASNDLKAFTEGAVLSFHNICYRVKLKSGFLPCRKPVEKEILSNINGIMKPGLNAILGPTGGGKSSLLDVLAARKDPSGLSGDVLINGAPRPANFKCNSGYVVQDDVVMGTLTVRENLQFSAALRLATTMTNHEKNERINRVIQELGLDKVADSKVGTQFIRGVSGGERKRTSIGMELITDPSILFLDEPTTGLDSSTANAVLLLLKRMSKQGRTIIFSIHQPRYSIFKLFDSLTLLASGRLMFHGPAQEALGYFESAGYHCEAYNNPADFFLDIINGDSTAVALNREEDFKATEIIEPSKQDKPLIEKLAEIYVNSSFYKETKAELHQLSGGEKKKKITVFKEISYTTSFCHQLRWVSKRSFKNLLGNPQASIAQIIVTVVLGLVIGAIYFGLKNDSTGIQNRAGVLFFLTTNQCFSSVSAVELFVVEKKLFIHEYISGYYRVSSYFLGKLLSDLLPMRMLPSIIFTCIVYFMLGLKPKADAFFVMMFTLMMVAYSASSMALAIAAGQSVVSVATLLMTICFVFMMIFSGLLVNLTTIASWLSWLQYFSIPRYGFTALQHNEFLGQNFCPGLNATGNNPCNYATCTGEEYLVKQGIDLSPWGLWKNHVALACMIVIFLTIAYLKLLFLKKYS
# CHRM4: Muscarinic acetylcholine receptor M4 (CHRM4, Homo sapiens, UniProt P08173)
# UniProt P08173, sequence (whole entry, looked up): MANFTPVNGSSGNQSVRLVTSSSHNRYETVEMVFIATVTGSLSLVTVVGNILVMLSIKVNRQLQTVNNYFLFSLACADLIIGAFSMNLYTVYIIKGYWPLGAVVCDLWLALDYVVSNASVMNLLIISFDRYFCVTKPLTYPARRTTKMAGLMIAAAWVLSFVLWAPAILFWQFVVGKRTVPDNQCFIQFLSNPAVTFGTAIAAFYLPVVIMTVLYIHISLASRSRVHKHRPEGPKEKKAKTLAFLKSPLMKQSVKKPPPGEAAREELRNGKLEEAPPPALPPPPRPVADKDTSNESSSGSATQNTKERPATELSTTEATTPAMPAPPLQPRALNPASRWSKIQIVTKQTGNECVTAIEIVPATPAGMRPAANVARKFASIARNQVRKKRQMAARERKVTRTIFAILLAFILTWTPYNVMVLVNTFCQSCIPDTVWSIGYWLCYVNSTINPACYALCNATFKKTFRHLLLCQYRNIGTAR
# T1: ssRNA, CUG repeat (Homo sapiens); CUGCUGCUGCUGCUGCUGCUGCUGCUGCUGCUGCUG
# B1: side-chain stapled; chain RTKQEARKSTGG (also: sidechain bridge or staple (positions not given here))
# UniProt P03958, sequence (whole entry, looked up): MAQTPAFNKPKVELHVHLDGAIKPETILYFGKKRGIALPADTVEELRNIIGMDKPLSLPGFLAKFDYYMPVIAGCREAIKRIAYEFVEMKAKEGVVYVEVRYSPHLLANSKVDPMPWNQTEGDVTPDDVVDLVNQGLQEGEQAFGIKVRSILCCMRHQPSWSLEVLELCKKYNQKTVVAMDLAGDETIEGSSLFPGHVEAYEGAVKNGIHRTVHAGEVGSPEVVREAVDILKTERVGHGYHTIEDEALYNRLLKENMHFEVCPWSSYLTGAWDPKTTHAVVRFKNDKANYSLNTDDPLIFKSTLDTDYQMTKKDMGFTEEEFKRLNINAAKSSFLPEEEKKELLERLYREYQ
# UniProt P22309, sequence (whole entry, looked up): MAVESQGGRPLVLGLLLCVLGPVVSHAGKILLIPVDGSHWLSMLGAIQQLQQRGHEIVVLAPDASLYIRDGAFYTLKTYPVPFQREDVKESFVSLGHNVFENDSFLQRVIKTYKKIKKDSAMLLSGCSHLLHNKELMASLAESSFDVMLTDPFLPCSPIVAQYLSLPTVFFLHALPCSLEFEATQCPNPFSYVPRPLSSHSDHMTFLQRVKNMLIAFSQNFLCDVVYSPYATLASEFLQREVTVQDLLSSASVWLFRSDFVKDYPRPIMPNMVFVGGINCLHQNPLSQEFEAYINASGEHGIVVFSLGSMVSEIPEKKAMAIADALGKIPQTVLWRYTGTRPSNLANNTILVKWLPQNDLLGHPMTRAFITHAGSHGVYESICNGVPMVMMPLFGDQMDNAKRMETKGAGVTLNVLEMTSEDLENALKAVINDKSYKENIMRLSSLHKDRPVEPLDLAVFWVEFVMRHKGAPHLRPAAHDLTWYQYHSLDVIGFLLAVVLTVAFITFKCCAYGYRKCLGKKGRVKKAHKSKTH
# UniProt B2RXH2, sequence (whole entry, looked up): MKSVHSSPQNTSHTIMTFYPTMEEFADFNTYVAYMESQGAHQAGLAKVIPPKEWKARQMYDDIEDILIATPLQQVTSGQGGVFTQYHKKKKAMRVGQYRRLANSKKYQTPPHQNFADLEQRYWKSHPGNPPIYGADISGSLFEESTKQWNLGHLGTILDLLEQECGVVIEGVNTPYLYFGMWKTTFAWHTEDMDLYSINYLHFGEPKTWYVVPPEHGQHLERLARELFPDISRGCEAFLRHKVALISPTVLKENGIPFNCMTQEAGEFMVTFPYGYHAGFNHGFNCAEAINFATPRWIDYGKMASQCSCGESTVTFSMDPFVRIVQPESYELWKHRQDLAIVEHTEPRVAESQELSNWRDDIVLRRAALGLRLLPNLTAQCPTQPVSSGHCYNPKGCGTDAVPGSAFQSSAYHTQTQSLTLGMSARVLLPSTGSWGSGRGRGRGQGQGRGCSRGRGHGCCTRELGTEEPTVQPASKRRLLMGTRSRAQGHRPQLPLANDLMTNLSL
# UniProt Q8WTS6, sequence (whole entry, looked up): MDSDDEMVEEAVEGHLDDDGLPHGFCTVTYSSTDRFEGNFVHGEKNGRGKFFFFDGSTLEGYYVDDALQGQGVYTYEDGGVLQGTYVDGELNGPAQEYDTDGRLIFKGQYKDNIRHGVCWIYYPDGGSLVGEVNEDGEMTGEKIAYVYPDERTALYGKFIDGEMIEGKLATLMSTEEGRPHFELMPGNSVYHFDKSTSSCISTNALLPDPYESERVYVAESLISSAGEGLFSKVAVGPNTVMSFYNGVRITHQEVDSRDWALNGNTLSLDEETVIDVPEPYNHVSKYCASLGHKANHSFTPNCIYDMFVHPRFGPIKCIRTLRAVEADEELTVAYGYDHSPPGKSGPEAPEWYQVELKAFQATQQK
# UniProt O43918, sequence (whole entry, unmodified, looked up): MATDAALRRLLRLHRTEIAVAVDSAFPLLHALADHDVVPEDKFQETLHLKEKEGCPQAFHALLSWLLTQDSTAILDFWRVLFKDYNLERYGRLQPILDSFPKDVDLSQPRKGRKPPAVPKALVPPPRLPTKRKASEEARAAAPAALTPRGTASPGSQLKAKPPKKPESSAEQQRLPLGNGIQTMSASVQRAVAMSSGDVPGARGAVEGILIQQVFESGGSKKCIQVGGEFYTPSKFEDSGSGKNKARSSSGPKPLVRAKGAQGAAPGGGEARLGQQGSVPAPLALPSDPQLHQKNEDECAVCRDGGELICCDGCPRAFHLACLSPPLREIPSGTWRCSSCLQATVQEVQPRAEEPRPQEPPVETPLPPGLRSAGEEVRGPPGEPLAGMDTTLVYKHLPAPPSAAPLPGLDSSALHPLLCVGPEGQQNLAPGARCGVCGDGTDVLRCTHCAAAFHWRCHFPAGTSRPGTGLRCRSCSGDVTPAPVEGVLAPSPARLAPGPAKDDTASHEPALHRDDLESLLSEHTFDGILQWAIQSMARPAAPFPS
# UniProt P12369, sequence (whole entry, unmodified, looked up): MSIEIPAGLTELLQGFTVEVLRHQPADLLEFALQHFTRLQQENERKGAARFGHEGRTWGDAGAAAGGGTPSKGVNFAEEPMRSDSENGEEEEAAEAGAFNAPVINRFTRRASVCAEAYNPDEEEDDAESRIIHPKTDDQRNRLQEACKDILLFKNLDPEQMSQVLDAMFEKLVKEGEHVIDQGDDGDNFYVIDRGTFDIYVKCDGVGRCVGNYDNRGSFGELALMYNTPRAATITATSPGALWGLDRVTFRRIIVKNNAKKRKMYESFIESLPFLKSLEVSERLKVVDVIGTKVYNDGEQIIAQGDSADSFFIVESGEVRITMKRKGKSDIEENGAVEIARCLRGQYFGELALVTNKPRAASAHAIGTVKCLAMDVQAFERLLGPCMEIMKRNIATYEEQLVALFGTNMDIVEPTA
# UniProt Q7K4Z4, sequence (whole entry, looked up): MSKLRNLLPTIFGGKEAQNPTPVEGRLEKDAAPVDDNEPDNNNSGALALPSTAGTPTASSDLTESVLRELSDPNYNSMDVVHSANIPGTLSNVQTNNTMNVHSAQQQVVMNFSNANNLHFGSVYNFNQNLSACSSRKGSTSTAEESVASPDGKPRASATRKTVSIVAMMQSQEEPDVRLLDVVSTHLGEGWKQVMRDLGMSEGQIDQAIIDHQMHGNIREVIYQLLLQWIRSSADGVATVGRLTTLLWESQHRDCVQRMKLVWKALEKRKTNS
# UniProt P50391, sequence (whole entry, looked up): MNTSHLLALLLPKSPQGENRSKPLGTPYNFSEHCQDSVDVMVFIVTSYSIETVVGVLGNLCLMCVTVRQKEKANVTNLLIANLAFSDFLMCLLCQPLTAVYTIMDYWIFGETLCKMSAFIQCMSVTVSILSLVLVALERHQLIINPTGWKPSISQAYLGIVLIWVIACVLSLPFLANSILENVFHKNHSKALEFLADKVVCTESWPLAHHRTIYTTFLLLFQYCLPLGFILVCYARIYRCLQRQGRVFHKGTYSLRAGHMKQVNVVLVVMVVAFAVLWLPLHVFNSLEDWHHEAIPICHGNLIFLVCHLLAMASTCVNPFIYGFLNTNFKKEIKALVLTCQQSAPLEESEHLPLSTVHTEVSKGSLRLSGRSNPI
Molecule,target or system,assay,system,conditions,scale,endpoint,value
O=C(O)c1ccccc1O,"unc-8 (Caenorhabditis elegans, UniProt Q21974, G387E)","ion current, two-electrode voltage clamp",Xenopus oocytes coexpressing MEC-2,"30 µM, -85 mV","baseline: uninjected oocytes, positive = inhibition",current change,-0.062 µA
Cn1c(=O)c2[nH]c(Cc3ccccc3)nc2n(C)c1=O,"Progesterone receptor (PGR, Homo sapiens, UniProt P06401)","reporter gene, antagonist, MMTV-luciferase",T47D/A1-2,"10 µM, 24 h, added: 5 nM progesterone",baseline: maximal activity,remaining activity,144%
COc1ccc(COc2ccccc2-c2cc(=O)n(C3CCCCC3O)cn2)cc1 (stereo not shown),CHRM1,"positive allosteric modulator, IP1 accumulation",CHO-M1 cells,"1 µM, 60 min, 37 °C, added: ACh","baseline: ACh alone, higher = stronger potentiation",ΔpEC50 of ACh,0.78 ± 0.14 log units
CCCCCCCCCCCCCCCC(=O)N[C@@H](CCC(=O)NCCCC[C@H](NC(=O)[C@H](CC(N)=O)NC(=O)[C@@H](NC(=O)[C@H](Cc1ccc(O)cc1)NC(=O)[C@H](CCCNC(=N)N)NC(=O)[C@H](CCCNC(=N)N)NC(=O)[C@H](CC(C)C)NC(=O)[C@H](CC(=O)O)NC(=O)[C@H](C)NC(=O)[C@H](C)NC(=O)[C@H](Cc1ccc(O)cc1)NC(=O)[C@H](CCC(N)=O)NC(=O)[C@H](C)NC(=O)[C@H](CCSC)NC(=O)[C@H](CCC(N)=O)NC(=O)[C@H](CCC(=O)O)NC(=O)[C@@H]1CCCN1C(=O)[C@@H](NC(=O)[C@H](C)NC(=O)[C@H](CC(N)=O)NC(=O)[C@H](CC(=O)O)NC(=O)CNC(=O)[C@@H]1CCCN1C(=O)[C@H](Cc1ccc(O)cc1)NC(=O)[C@@H](NC(=O)[C@@H]1CCCN1C(=O)[C@H](CCC(=O)O)NC(=O)[C@H](CC(C)C)NC(=O)[C@@H]1CCCN1C(=O)[C@H](C)NC(=O)c1ccc2c(c1)C(=O)OC21c2ccc(O)cc2Oc2cc(O)ccc21)C(C)C)[C@@H](C)O)[C@@H](C)CC)C(=O)N[C@@H](CC(C)C)C(=O)N[C@H](C(=O)N[C@@H](CCCNC(=N)N)C(=O)N1CCC[C@H]1C(=O)N[C@@H](CCCNC(=N)N)C(=O)N[C@@H](Cc1ccc(O)cc1)C(N)=O)[C@@H](C)O)C(=O)O,"Neuropeptide Y receptor type 4 (NPY4R, Homo sapiens, UniProt P50391)",radioligand displacement,COS-7 transiently expressing,"1 µM, 90 min, room temperature, added: [3H]-hPP 1 nM",baseline: total binding,specific binding,83%
CCCN(CCc1ccccc1)C(=O)[C@@H]1OC(C(=O)O)=C[C@H](O)[C@H]1NC(C)=O,ABCG2,"JC-1 dye efflux, inhibitor, flow cytometry",ABCG2-overexpressing cells,added: JC-1 1 µM,,IC50,1.37 ± 0.53 µM
O=C(O[C@@H]1Cc2c(O)cc(O)cc2O[C@@H]1c1cc(O)c(O)c2c(=O)c(O)cc([C@H]3Oc4cc(O)cc(O)c4C[C@H]3O)cc12)c1cc(O)c(O)c(O)c1,"Protein immune deficiency (imd, Drosophila melanogaster, UniProt Q7K4Z4)","inhibitor, SDD-AGE densitometry",,"100 µM, 30 min, room temperature",,reduction of aggregates,58.2%
Cn1cc(-c2ccc(COc3ccccc3-c3cc(=O)n(C4CCCCC4O)cn3)cc2)cn1 (stereo not shown),CHRM1,"positive allosteric modulator, IP1 accumulation",CHO-M1 cells,"10 µM, 60 min, 37 °C, added: ACh","baseline: ACh alone, higher = stronger potentiation",ΔpEC50 of ACh,1.28 ± 0.42 log units
CC(C)[C@H](NC(=O)[C@@H]1CCCN1C(=O)[C@H](CCCNC(=N)N)NC(=O)[C@H](CS)NC(=O)[C@H](Cc1c[nH]c2ccccc12)NC(=O)[C@H](CCCNC(=N)N)NC(=O)[C@@H](Cc1ccccc1)NC(=O)[C@H](Cc1c[nH]cn1)NC(=O)[C@H](CCC(=O)O)NC(=O)[C@H](CS)NC(=O)[C@H](CS)NC(=O)[C@H](CCCCN)NC(=O)[C@@H]1CC(=O)N[C@@H](CCCNC(=N)N)C(=O)N[C@@H](C)C(=O)N[C@@H](CC(=O)O)C(=O)N[C@H](Cc2ccc(O)cc2)C(=O)N1)C(N)=O [technetium-99m labelled],,,"C57 mice, spleen","intravenous, 0.037 MBq, 2 h",,tissue uptake,0.48 ± 0.21 %ID/g
COc1cc2c(cc1OC)-c1c/c(=N\c3c(C)cc(C)cc3C)n(C)c(=O)n1CC2,"Dual specificity calcium/calmodulin-dependent 3',5'-cyclic nucleotide phosphodiesterase 1A (PDE1A, Homo sapiens, UniProt P54750)","cAMP hydrolysis, inhibitor",,up to 50 µM,,IC50,inactive
O=P1(O)OC[C@H]2O[C@@H](n3cnc4c(Nc5ccccc5)ncnc43)[C@@H](O)C2O1 (stereo partly shown),"cAMP-dependent protein kinase type II-beta regulatory subunit, holoenzyme with catalytic subunit (Prkar2b, Rattus norvegicus, UniProt P12369, S112A)","PKA holoenzyme activation, activator, fluorescence anisotropy",,,"baseline: RIIβ over RIα, higher = RIIβ-selective",selectivity ratio,4.6
CC[C@H](C)[C@H](NC(=O)[C@H](CCC(=O)O)NC(=O)[C@@H](NC(=O)[C@H](Cc1ccccc1)NC(=O)[C@H](CO)NC(=O)[C@H](CC(=O)O)NC(=O)[C@H](CCC(=O)O)NC(=O)[C@H](CO)NC(=O)[C@H](CO)NC(=O)CNC(=O)[C@H](CO)NC(=O)[C@H](CO)NC(=O)[C@H](CC(N)=O)NC(=O)CCCCCNC(=S)Nc1ccc2c(c1)C(=O)OC21c2ccc(O)cc2Oc2cc(O)ccc21)C(C)C)C(=O)N[C@@H](CCCNC(=N)N)C(=O)N[C@@H](CCSC)C(=O)N[C@@H](C)C(=O)N[C@@H](CCC(=O)O)C(=O)O,"Microtubule-associated protein 1 light chain 3 beta (Homo sapiens, UniProt Q9GZQ8)","binding, surface plasmon resonance",,added: OPTN 169-185 peptide,,koff,0.0351 s⁻¹
O=c1cc(-c2ccccc2OCc2ccc(-c3nccs3)cc2)ncn1C1CCCCC1O (stereo not shown),CHRM1,"allosteric agonist, IP1 accumulation",CHO-M1 cells,"10 µM, unit not given",baseline: maximum ACh response,change in baseline activity,75 ± 3.8
Carbidopa,"Lysine-specific demethylase 4E (KDM4E, Homo sapiens, UniProt B2RXH2)",FDH-coupled,,,baseline: FAS 20 µM over 2.5 µM,IC50 ratio,3.9
O=c1cc(-c2ccccc2OCc2ccc(-c3ncco3)cc2)ncn1C1CCCCC1O (stereo not shown),CHRM1,"allosteric agonist, IP1 accumulation",CHO-M1 cells,"1 µM, unit not given",baseline: maximum ACh response,change in baseline activity,5.5 ± 3.4
CCN(c1ccccc1Cl)S(=O)(=O)C1CC2OC1C(c1ccc(O)cc1)=C2c1ccc(O)cc1 (stereo not shown),"Estrogen receptor beta (ESR2, Homo sapiens, UniProt Q92731)","reporter gene, antagonist",HepG2,added: estradiol 10 nM,"baseline: E2 response, negative is inverse agonism",efficacy,3 ± 3%
CCCCOc1ccc(C(=O)Nc2ccccc2F)cc1,"Metabotropic glutamate receptor 5 (Grm5, Rattus norvegicus, UniProt P31424)","calcium mobilization, positive allosteric modulator",HEK293,"concentration not given, added: EC20 glutamate",baseline: maximal glutamate response,potentiation,84%
O=C(Nc1nc2cccnc2s1)c1cccnn1,CHRM4,"calcium mobilization, positive allosteric modulator",CHO expressing hM4 and Gqi5,"concentration not given, added: acetylcholine EC20",,activity,inactive
COCCN(CCOC)C(C)C(=O)Nc1c(C)csc1C(=O)OC (stereo not shown),"Sodium channel protein type 10 subunit alpha (SCN10A, Homo sapiens, UniProt Q9Y5Y9)",cell membrane chromatography,,,higher = stronger binding,capacity factor k′,2.6
O=C(O)C1Nc2c(O)cccc2C2C=CCC12 (stereo not shown),"T1, ssRNA, CUG repeat (Homo sapiens)","competition with MBNL1, competitor, TR-FRET",,,,IC50,242 µM
O=C(c1ccc(COc2ccccc2-c2cc(=O)n(C3CCCCC3O)cn2)cc1)N1CCCCC1 (stereo not shown),CHRM1,"positive allosteric modulator, IP1 accumulation",CHO-M1 cells,"10 µM, 60 min, 37 °C, added: ACh","baseline: ACh alone, higher = stronger potentiation",ΔpEC50 of ACh,0.86 ± 0.13 log units
COc1ccc(C)c2sc(NC(=O)c3ccc(F)cc3)nc12,CHRM4,"calcium mobilization, positive allosteric modulator",CHO expressing hM4 and Gqi5,"concentration not given, added: acetylcholine EC20",,activity,inactive
B1,"Histone-lysine N-methyltransferase SETD7 (SETD7, Homo sapiens, UniProt Q8WTS6)","peptide methylation, substrate, MALDI-TOF MS",,"10 µM, 3 h, pH 8.0, 37 °C, enzyme 500 nM, added: SAM 30 µM",,methylation conversion,~16%
O=C1c2c(O)ccc(O)c2C(=O)c2c(NCCNCCO)ccc(NCCNCCO)c21,ABCG2,"vanadate-sensitive ATPase activity, activator",membrane vesicles,unit not given,baseline: basal,maximal ATPase stimulation,2.04
Brc1ccc2cc[nH]c2c1,"Dehaloperoxidase B, ferric (Amphitrite ornata, UniProt Q9NAV7)","substrate, HPLC",5% methanol,"5 min, pH 7, 25 °C, enzyme 10 µM, added: H2O2 500 µM",,conversion,34.4%
O=C(O)[C@H]1O[C@@H](Oc2ccc(-c3cc(=O)c4ccccc4o3)cc2)[C@H](O)[C@@H](O)[C@@H]1O,"UDP-glucuronosyltransferase 1A1 (UGT1A1, Homo sapiens, UniProt P22309)","glucuronidation, substrate, Supersomes",,,,Vmax,0.85 ± 0.01 nmol/mg/min
NS(=O)(=O)c1ccc(COc2ccccc2-c2cc(=O)n(C3CCCCC3O)cn2)cc1 (stereo not shown),CHRM1,"positive allosteric modulator, IP1 accumulation",CHO-M1 cells,"1 µM, 60 min, 37 °C, added: ACh","baseline: ACh alone, higher = stronger potentiation",ΔpEC50 of ACh,0.76 ± 0.1 log units
Nc1ncnc2c1ncn2[C@@H]1O[C@H](CO)C[C@H]1O,"Adenosine deaminase (Mus musculus, UniProt P03958)",substrate,mouse erythrocytes,"30 min, 37 °C",,Vmax,12.1 nmol/mg/min
CN(C)S(=O)(=O)c1ccc(COc2ccccc2-c2cc(=O)n(C3CCCCC3O)cn2)cc1 (stereo not shown),CHRM1,"positive allosteric modulator, IP1 accumulation",CHO-M1 cells,"10 µM, 60 min, 37 °C, added: ACh","baseline: ACh alone, higher = stronger potentiation",ΔpEC50 of ACh,0.65 ± 0.09 log units
C[C@H](N)C(=O)N[C@@H](CCCNC(=N)N)C(=O)N[C@H](C(=O)N[C@@H](CCCCN)C(=O)N[C@@H](CCC(N)=O)C(=O)N[C@H](C(=O)N[C@@H](C)C(=O)N[C@@H](C)C(=O)N[C@@H](CCCCN)C(=O)N[C@@H](CO)C(=O)O)[C@@H](C)O)[C@@H](C)O,"Autoimmune regulator, PHD1 domain (AIRE, Homo sapiens, UniProt O43918)",ITC,,"concentration not given, pH 7.2, 23 °C",,binding enthalpy ΔH,-7.3 ± 0.3 kcal/mol
CN(C)C(=O)c1ccc(COc2ccccc2-c2cc(=O)n(C3CCCCC3O)cn2)cc1 (stereo not shown),CHRM1,"positive allosteric modulator, IP1 accumulation",CHO-M1 cells,"10 µM, 60 min, 37 °C, added: ACh","baseline: ACh alone, higher = stronger potentiation",ΔpEC50 of ACh,0.98 ± 0.11 log units
COc1ccc(C)c2sc(NC(=O)NC3CCC3)nc12,CHRM4,"calcium mobilization, positive allosteric modulator",CHO expressing hM4 and Gqi5,"concentration not given, added: acetylcholine EC20",,activity,inactive

# A few entries again:
Molecule,target or system,assay,system,conditions,scale,endpoint,value
CCN(c1ccccc1Cl)S(=O)(=O)C1CC2OC1C(c1ccc(O)cc1)=C2c1ccc(O)cc1 (stereo not shown),"Estrogen receptor beta (ESR2, Homo sapiens, UniProt Q92731)","reporter gene, antagonist",HepG2,added: estradiol 10 nM,"baseline: E2 response, negative is inverse agonism",efficacy,3 ± 3%
C[C@H](N)C(=O)N[C@@H](CCCNC(=N)N)C(=O)N[C@H](C(=O)N[C@@H](CCCCN)C(=O)N[C@@H](CCC(N)=O)C(=O)N[C@H](C(=O)N[C@@H](C)C(=O)N[C@@H](C)C(=O)N[C@@H](CCCCN)C(=O)N[C@@H](CO)C(=O)O)[C@@H](C)O)[C@@H](C)O,"Autoimmune regulator, PHD1 domain (AIRE, Homo sapiens, UniProt O43918)",ITC,,"concentration not given, pH 7.2, 23 °C",,binding enthalpy ΔH,-7.3 ± 0.3 kcal/mol
COCCN(CCOC)C(C)C(=O)Nc1c(C)csc1C(=O)OC (stereo not shown),"Sodium channel protein type 10 subunit alpha (SCN10A, Homo sapiens, UniProt Q9Y5Y9)",cell membrane chromatography,,,higher = stronger binding,capacity factor k′,2.6
